Measurements of several laboratories.
± gives the spread as reported.

| Compound | target | test | system | setting | how to read | measurement | result |
| --- | --- | --- | --- | --- | --- | --- | --- |
| NCCc1c[nH]c2ccc(O)cc12 | AANAT2 Rangifer tarandus | substrate, DTNB colorimetric |  | together with: acetyl-CoA |  | Km | 90 ± 30 µM |
| O=C(Cc1cccs1)N[C@@H]1C(=O)N2C(C(=O)O)=C(/C=C/c3ccc([N+](=O)[O-])cc3[N+](=O)[O-])CS[C@H]12 | blaNDM-1 (Klebsiella pneumoniae, UniProt C7C422, C208D) | substrate, steady-state kinetics |  |  |  | kcat | 7 ± 0.2 s⁻¹ |
| O=C(Nc1cnccc1Cl)N1CCN(Cc2ccc3c(c2)OC(F)(F)O3)CC1 | MAOA (Homo sapiens, UniProt P21397) | enzyme activity, inhibitor |  | 10 µM, human, together with: kynuramine substrate |  | inhibition | 4% |
| O=C1CC(C(=O)O)NC(=O)N1 (centres unmarked) | Dihydroorotate dehydrogenase A (fumarate) (pyrDA, Lactococcus lactis subsp. cremoris, UniProt A2RJT9, V133T) | flavin reduction, stopped-flow | Lactococcus lactis | 25 °C |  | kred | 100 ± 1.9 s⁻¹ |
| [2H]c1c([2H])c([C@]2([2H])CCCN2C(=O)C(C)(C)Oc2ccc3cn[nH]c3c2)c([2H])c([2H])c1C([2H])([2H])[2H] | FLT1 (Homo sapiens, UniProt P17948) | KINOMEscan |  | 1 µM | relative to: DMSO control | remaining binding | 88% |
| CCCCC/C=C\C/C=C\C/C=C\C/C=C\CCCC(=O)NCCO | Trpv1 (Mus musculus, UniProt Q704Y3, N552Q) | ion current, agonist, whole-cell patch clamp |  | N552Q | relative to: 3 mM 2-APB | maximal open probability | 0.83 ± 0.16 |
| CN1CCN(c2cc(-c3ccncc3)c(-c3ccc4ccccc4c3)nn2)CC1 | MCHR2 (Homo sapiens, UniProt Q969V1) | agonist, FLIPR |  | 12.5 µM |  | activation | 7.3% |
| [Cl][Cd][Cl] | Voltage-dependent P/Q-type calcium channel subunit alpha-1A (Homo sapiens, UniProt O00555) | channel activity, antagonist | human cells |  |  | IC50 | 780 nM |
| O=P(O)(O)OC[C@H]1C[C@](O)(CO)[C@@H](O)[C@H](O)[C@@H]1O | 2-epi-valiolone synthase (Actinosynnema mirum, UniProt C6WFL3) | phosphate release |  | 10 µM |  | apparent Vmax | 2.1 ± 0.2 µM/min |
| C[C@@H](O)[C@H](NC(=O)[C@H](Cc1ccccc1)NC(=O)[C@H](Cc1ccccc1)NC(=O)[C@H](CC(=O)O)NC(=O)[C@H](CC(=O)O)NC(=O)[C@H](Cc1c[nH]c2ccccc12)NC(=O)[C@H](CO)NC(=O)[C@@H](N)CCCCN)C(=O)N[C@@H](CCCNC(=N)N)C(=O)O | Epithelial sodium channel subunit gamma (Homo sapiens, UniProt P51170) | binding, bio-layer interferometry |  |  |  | kon | 30000 M⁻¹ s⁻¹ |
| COc1ccc(CC2NCCc3cc(OC)c(OC)cc32)cc1OC (centres unmarked) | DCLRE1A (Homo sapiens, UniProt Q6PJP8) | exonuclease activity, inhibitor, fluorescence HTS |  | 10 µM, 80 min, together with: 8 nM 5P-FQ substrate |  | remaining activity | 20% |
| CC[C@H](C)[C@H](NC(=O)CNC(=O)[C@@H](N)CCCCN)C(=O)N[C@@H](CC(C)C)C(=O)N[C@@H](CCCCN)C(=O)N[C@@H](CC(N)=O)C(=O)N[C@@H](CCCNC(=N)N)C(=O)N[C@@H](C)C(=O)N[C@@H](CCCNC(=N)N)C(=O)N[C@@H](CCCNC(=N)N)C(=O)N[C@@H](CCC(=O)O)C(=O)N[C@@H](CCCNC(=N)N)C(=O)N1CCC[C@H]1C(=O)NCC(=O)N[C@@H](CCCCN)C(=O)N[C@@H](CCCNC(=N)N)C(=O)N[C@@H](CCCCN)C(=O)N[C@H](C(=O)N[C@H](C(=O)N[C@H](C(=O)N[C@@H](Cc1c[nH]c2ccccc12)C(=O)N1CCC[C@H]1C(=O)N[C@@H](CCC(=O)O)C(=O)N[C@@H](CCC(=O)O)C(=O)NCC(=O)N[C@@H](CCCCN)C(=O)N[C@@H](CC(C)C)C(=O)N[C@@H](CCCNC(=N)N)C(=O)N[C@@H](CCC(=O)O)C(=O)N[C@@H](Cc1ccc(O)cc1)C(=O)N[C@@H](Cc1ccccc1)C(=O)N[C@@H](Cc1ccc(O)cc1)C(=O)N[C@@H](Cc1ccccc1)C(=O)N[C@@H](CCC(=O)O)C(=O)N[C@@H](CC(C)C)C(=O)N[C@@H](CC(=O)O)C(=O)N[C@@H](CCC(=O)O)C(=O)N[C@H](C(=O)N[C@@H](CCC(=O)O)C(=O)N[C@@H](CCCNC(=N)N)C(=O)N[C@H](C(=O)N[C@@H](CC(N)=O)C(=O)N[C@H](C(=O)O)C(C)C)C(C)C)[C@@H](C)O)[C@@H](C)O)C(C)C)[C@@H](C)O | PPP1CA (Homo sapiens, UniProt P62136) | binding, isothermal titration calorimetry |  | 25 °C, PP1α residues 7-330 |  | entropic term −TΔS | -20.3 ± 1.4 kcal/mol |
| CC(C)C[C@H]1C(=O)N2CCC[C@H]2[C@]2(O)O[C@](NC(=O)[C@@H]3C=C4c5cccc6[nH]c(Br)c(c56)C[C@H]4[N+](C)(C)C3)(C(C)C)C(=O)N12.[I-] | Oprm1 (Rattus norvegicus, UniProt P33535) |  |  | 100 nM, together with: [3H]DAMGO |  | radioligand binding inhibition | no effect |
| CNC(=O)Oc1cccc2c1OC(C)(C)O2 | FABP4 (Homo sapiens, UniProt P15090) | binding, affinity selection mass spectrometry |  | 100 nM, pooled screen | relative to: other proteins | fold change | 13.1 |
| CC1(C)C(C=C(Cl)Cl)C1C(=O)OCc1cccc(Oc2ccccc2)c1 (centres unmarked) | uncharacterized protein (Anopheles coluzzii, UniProt A0A6E8VQK1) | enzyme activity, inhibitor | Sf9 cell homogenate | 4.94 µM, 0.1667 h, together with: α-naphthyl acetate substrate | relative to: no inhibitor | remaining activity | 97.1% |
| CC[C@@H](C)[C@@H](NC(=O)[C@@H](Cc1ccc(O)cc1)NC(=O)[C@H]1CCCN1C(=O)[C@@H](CCCNC(=N)N)NC(=O)[C@H](N)Cc1c[nH]cn1)C(=O)N[C@H](C)C(=O)N[C@H](Cc1c[nH]cn1)C(=O)N[C@H](CCCNC(=N)N)C(=O)N[C@H](CCCCNC(=O)c1cccc(S(=O)(=O)F)c1)C(=O)N[C@H](Cc1ccc(O)cc1)C(=O)N[C@H](CO)C(=O)N[C@H](Cc1ccccc1)C(N)=O | Transferrin receptor protein 1 (Tfrc, Mus musculus, UniProt Q62351) | flow cytometry | B16 | 48 h, unit not given | relative to: 0 h | surface TFRC expression | 0.396 |
| CN(C(=O)n1cnc(-c2ccc[n+]([O-])c2)c1)C1CCCCC1 | ADRB3 (Homo sapiens, UniProt P13945) | radioligand binding |  | 50 µM |  | inhibition | -2% |
| CC[C@H](CO)Nc1nc(NCc2ccccc2)c2ncn(C(C)C)c2n1 | TTK (Homo sapiens, UniProt P33981) | KINOMEscan |  | 10 µM | direction not given | binding score | 8.8 |
| NCCc1c[nH]c2ccc(O)cc12 | Htr1b (Rattus norvegicus, UniProt P28564) | radioligand binding, antagonist |  | reference compound |  | Hill coefficient | 0.7 |
| COc1cc(N)c(Cl)cc1C(=O)NC1CN2CCC1CC2 (centres unmarked) | Probable G-protein coupled receptor 63 (GPR63, Homo sapiens, UniProt Q9BZJ6) | β-arrestin recruitment, TANGO luminescence, item: GPR63 |  | concentration not given | relative to: basal luminescence | log2 fold change | -0.698 |
| C/C=C1/C(=O)C[C@H]2[C@@H]3CCC4=CC(=O)CC[C@]4(C)[C@H]3CC[C@]12C | Nuclear receptor subfamily 1 group I member 3 (Homo sapiens, UniProt Q14994) |  | cells | concentration not given |  | activity | inactive |
| CNC(=O)[C@H]1[Se][C@@H](n2cnc3c(NCc4cccc(I)c4)ncnc32)[C@H](O)[C@@H]1O | ADORA3 (Homo sapiens, UniProt P0DMS8) | radioligand binding |  |  | relative to: Ki A2A over Ki A3 | selectivity ratio | 1900 fold |
| CC(CCn1ccc(-c2ccc(-c3cn(CC45CC(C4)C5)nn3)cc2)cc1=O)(C(=O)NO)S(C)(=O)=O (centres unmarked) | UDP-3-O-acyl-N-acetylglucosamine deacetylase (Pseudomonas aeruginosa, UniProt P47205) | fluorescence |  | 37 °C |  | residence time | ~120 min |
| O=C(Nc1cccnn1)N1CCC(=Cc2cccc(Oc3ccc(C(F)(F)F)cn3)c2)CC1 | ESR2 (Homo sapiens, UniProt Q92731) | radioligand binding |  | 50 µM, together with: [3H]estradiol |  | inhibition of binding | 0% |
| O=C(O)COP(=O)(O)O | TPI1 (Saccharomyces cerevisiae, UniProt P00942, S211G) | enzyme activity, competitive inhibitor, GPDH/NADH-coupled |  | pH 5.7, 25 °C, ionic strength 0.1 NaCl, together with: glyceraldehyde 3-phosphate substrate | relative to: mutant over wild type | Ki ratio | 3.2 |
| C[C@H]1CN(c2n[nH]c3nc(N[C@H]4CC[C@H](NS(=O)(=O)CCC(F)(F)F)CC4)ncc23)CCO1 | DYNC1H1 (Homo sapiens, UniProt Q14204) | inhibitor, Kinobeads competition profiling |  | 0.8 µM | relative to: vehicle | relative abundance | 1.05 |
| O=C(c1ccc(Cl)cc1)N1CCN2C(=O)N(OC(=O)N3CCOc4ccccc43)C(=O)C2C1 (centres unmarked) | LIPA (Homo sapiens, UniProt P38571) | enzyme activity, inhibitor, MS-based ABPP | SW-620 in situ | 10 µM, 2 h, 37 °C | relative to: compound over DMSO, lower = stronger inhibition | median ratio | 0.99 |
| Nc1ncnc2c1ncn2[C@@H]1O[C@H](COP(=O)(O)OP(=O)(O)OP(=O)(O)O)[C@@H](O)[C@H]1O | matB (Rhodopseudomonas palustris, UniProt Q6ND88, C106A/K488A/Q457C/R286C) | ATP binding |  | pH 7.0, 200 mM NaCl | relative to: bound over unbound | fluorescence ratio | 3.3 |
| COc1ccc(N2C(=O)N(c3c(C)cccc3Cl)Cc3cnc(Nc4ccc(C5CCN(C)CC5)cc4OC)nc32)nc1 | SRPK1 (Homo sapiens, UniProt Q96SB4) | kinase activity |  | 0.5 µM |  | inhibition | 1.56% |

Repeated from above:
| Compound | target | test | system | setting | how to read | measurement | result |
| --- | --- | --- | --- | --- | --- | --- | --- |
| O=C(Cc1cccs1)N[C@@H]1C(=O)N2C(C(=O)O)=C(/C=C/c3ccc([N+](=O)[O-])cc3[N+](=O)[O-])CS[C@H]12 | blaNDM-1 (Klebsiella pneumoniae, UniProt C7C422, C208D) | substrate, steady-state kinetics |  |  |  | kcat | 7 ± 0.2 s⁻¹ |
| [Cl][Cd][Cl] | Voltage-dependent P/Q-type calcium channel subunit alpha-1A (Homo sapiens, UniProt O00555) | channel activity, antagonist | human cells |  |  | IC50 | 780 nM |
| CC[C@H](CO)Nc1nc(NCc2ccccc2)c2ncn(C(C)C)c2n1 | TTK (Homo sapiens, UniProt P33981) | KINOMEscan |  | 10 µM | direction not given | binding score | 8.8 |
| O=C1CC(C(=O)O)NC(=O)N1 (centres unmarked) | Dihydroorotate dehydrogenase A (fumarate) (pyrDA, Lactococcus lactis subsp. cremoris, UniProt A2RJT9, V133T) | flavin reduction, stopped-flow | Lactococcus lactis | 25 °C |  | kred | 100 ± 1.9 s⁻¹ |
